Measurements from different studies.
Lines come from different studies, so protocols differ.
Method: steady-state kinetics
B1: enzyme (Lacticaseibacillus rhamnosus, UniProt A0A7S7JIA0); chain MSEPLPRIKRYEDLGLGLFIHWGLYSQLAVGEWTEFIHHRSRSEYEKLIATFTANQFDAEAIAHAAKMMGAKYIVLTTKHHEGFFLYDTKGLSSFDVMHSPANRDLIAEFVAACRKEGLLPFFYVATYDWHSPLYEENFPAYLDYLKASVEVLCRHYGPVGGFWFDGNWNKKEADWQLPALYGMIRKYQPDAIIVNNTGLKNRGKVSDPEIDVVTYERRTPDEIYHGAPNAKYVAGEISMTLNQHWGIATNDLNYKSPAEVIETVAHARHIGANILVNIGLTGQGAIPASAKTYMALLGRWTTMAAPALYRGRPTAIVSGQGARDFVLHADAHDYLCVFDLKVVGNDNVVLGGEGVNPRSFVGIDRPIESVYWLDNEEYLSFTQDLHKRVLTVDATGYPYGSDWVVRIAQIDYKSENRTVKSD
B2: LYS1 C205S/H96Q/K77M (Saccharomyces cerevisiae, UniProt P38998); chain MAAVTLHLRAETKPLEARAALTPTTVKKLIAKGFKIYVEDSPQSTFNINEYRQAGAIIVPAGSWKTAPRDRIIIGLMEMPETDTFPLVHEHIQFAQCYKDQAGWQNVLMRFIKGHGTLYDLEFLENDQGRRVAAFGFYAGFAGAALGVRDWAFKQTHSDDEDLPAVSPYPNEKALVKDVTKDYKEALATGARKPTVLIIGALGRSGSGAIDLLHKVGIPDANILKWDIKETSRGGPFDEIPQADIFINCIYLSKPIAPFTNMEKLNNPNRRLRTVVDVSADTTNPHNPIPIYTVATVFNKPTVLVPTTAGPKLSVISIDHLPSLLPREASEFFSHDLLPSLELLPQRKTAPVWVRAKKLFDRHCARVKRSSRL
B3: enzyme (Enterococcus faecalis, UniProt Q831E3); chain MKDLVYLNYAATSYKKFPATIEALTAYLAENQFMNYGRNAPLLREGLPLLETRQLLADFFQAPSAAQITFTNNATTSLNLALAGILQPGDHVITTMLEHHAVARPLHLLEKERGISVTYVACQKTGLLEVEDIQRAWRTNTKALVMTHASNVLGTILPIEECFQWAQQKGLLTILDAAQTAGFLPIKMTQMAIDVLAFTGHKSLYGLAGIGGLAFSERGAEAVKPLMAGGTGSHSNSFDQPSFLPDKFEAGTLNSLGILSLNSSIKELNKIGLAAIQKHERTLMQNFLNGLSGLPVTILGTKDVAQTVPVVSITLWNQEETIVAQQLAEQYGIMTRAGLHCAPLAHQTAGTLATGTLRFSFGWQTTPEEITWTIHALQELLI
B4: enzyme (Geobacillus stearothermophilus, UniProt P42328); chain MKAAVVEQFKEPLKIKEVEKPTISYGEVLVRIKACGVCHTDLHAAHGDWPVKPKLPLIPGHEGVGIVEEVGPGVTHLKVGDRVGIPWLYSACGHCDYCLSGQETLCEHQKNAGYSVDGGYAEYCRAAADYVVKIPDNLSFEEAAPIFCAGVTTYKALKVTGAKPGEWVAIYGIGGLGHVAVQYAKAMGLNVVAVDIGDEKLELAKELGADLVVNPLKEDAAKFMKEKVGGVHAAVVTAVSKPAFQSAYNSIRRGGACVLVGLPPEEMPIPIFDTVLNGIKIIGSIVGTRKDLQEALQFAAEGKVKTIIEVQPLEKINEVFDRMLKGQINGRVVLTLEDK
B5: enzyme Y414S/Y415A (Methanosarcina mazei, UniProt Q8PVB1); chain MSEQRSVPLREHLLALKPCRHGGLIQETSETYGIPENEILDFSANFNPLGSPFDYPENGLNFEDIIKKSCGKLLEYPDNRYVEFREAAARFVGLGVTPQSIVPGNGSTEIVRLVVESVIEKGDKVLLPWPTFGEYEMQCRITGAEPVCPSQEEVNTLPDEVLEEAKILFICNPNNPTGKLRTREELKVLAERCREHKTLLYVDEAFIELSDPSQSVADLPAENNYVFVMRSLTKDFAIPGIRMGFGIAPPAMADILNTARLSWNLGAIANNTGIALLNIEGGIDSPYLKKAREMILKEGETLKAKIDRIRGFEAGEVNVNFILVDVSKFMLNSSELTARLAARGVLVRDCVSFHGLGKNYIRVAVRTEKENDRLIAAIGDVITEWGREQAKNELQHVIEKASEEGIGGRKTCESAPCHFEGQNCTFCFCPFYPCENEKTGGKWIQSSRGGRVWSCVDCHLVHKKEIAQKILDCLMHEGDTDELVKVAWKEVMEPIL
B6: enzyme (Salinispora arenicola, UniProt A8M783); chain MASTPWISFTTDYGLADGFVAACHGVLARLAPTARVIDVTHLVPPGDVRRGAAVLAQTVPYLPAAVHVAVVDPGVGTARRAIALTAGNGLLVGPDNGLLLDAATALGGVDAAVELTNPDWLGARMSATFHGRDVFAPVAARLALGAPLADAGPAVEPGALVRLPTPLVQPETDGFTAEVLTVDHFGNVQLAATGALLESLPRSLRVAHRPAVHARTFDDAPPGGLLVHVDSAGLVAVAVNGGRAADLLAVTPGDQLRVTAG
B7: ackA (Escherichia coli, UniProt P0A6A3); chain MSSKLVLVLNCGSSSLKFAIIDAVNGEEYLSGLAECFHLPEARIKWKMDGNKQEAALGAGAAHSEALNFIVNTILAQKPELSAQLTAIGHRIVHGGEKYTSSVVIDESVIQGIKDAASFAPLHNPAHLIGIEEALKSFPQLKDKNVAVFDTAFHQTMPEESYLYALPYNLYKEHGIRRYGAHGTSHFYVTQEAAKMLNKPVEELNIITCHLGNGGSVSAIRNGKCVDTSMGLTPLEGLVMGTRSGDIDPAIIFHLHDTLGMSVDAINKLLTKESGLLGLTEVTSDCRYVEDNYATKEDAKRAMDVYCHRLAKYIGAYTALMDGRLDAVVFTGGIGENAAMVRELSLGKLGVLGFEVDHERNLAARFGKSGFINKEGTRPAVVIPTNEELVIAQDASRLTA
B8: GLA (Homo sapiens, UniProt P06280); chain LDNGLARTPTMGWLHWERFMCNLDCQEEPDSCISEKLFMEMAELMVSEGWKDAGYEYLCIDDCWMAPQRDSEGRLQADPQRFPHGIRQLANYVHSKGLKLGIYADVGNKTCAGFPGSFGYYDIDAQTFADWGVDLLKFDGCYCDSLENLADGYKHMSLALNRTGRSIVYSCEWPLYMWPFQKPNYTEIRQYCNHWRNFADIDDSWKSIKSILDWTSFNQERIVDVAGPGGWNDPDMLVIGNFGLSWNQQVTQMALWAIMAAPLFMSNDLRHISPQAKALLQDKDVIAINQDPLGKQGYQLRQGDNFEVWERPLSGLAWAVAMINRQEIGGPRSYTIAVASLGKGVACNPACFITQLLPVKRKLGFYEWTSRLRSHINPTGTVLLQLENTMQMSLKDLL
B9: enzyme (Bacillus subtilis, UniProt P14949); chain AIVKATDQSFSAETSEGVVLADFWAPWCGPCKMIAPVLEELDQEMGDKLKIVKIDVDENQETAGKYGVMSIPTLLVLKDGEVVETSVGFKPKEALQELVNKHL
B10: bjaI (Bradyrhizobium diazoefficiens, UniProt Q89VI2); chain MIHAISAVNRHLYEDVLEQHFRLRHDIFVEERHWETLRRPDGREVDSYDDEDTVYLLALEGRRVVGGHRLYPTTKPSMMSEVFPHLAAVRGCPSDPLIWEWSRYFVVRDRRDGALNLQLMAAVQEFCLDQGIAQVSAIMETWWLPRFHEAGFVVTPLGLPALVENAWTMAATVDIRRQTLDVLHDRIGMPSIVQQDGPRLDAVARANLCGLAAAQRKSA
B11: enzyme S252E (Schizosaccharomyces pombe, UniProt P78804); chain MSTPYEPEFQQAYKEIVGSIESSKLFEVHPELKRVLPIISIPERVLEFRVTWEDDKGNCRVNTGYRVQFNSALGPYKGGLRFHPSVNLSILKFLGFEQIFKNALTGLPMGGGKGGSDFDPKGKSDNEIRRFSQAFMRQLFRYIGPQTDVPAGDIGVTGFVVMHMFGEYKRLRNEYSGVVTGKHMLTGGSNIRPEATGYGVVYYVKHMIEHRTKGAETLKGKRVAISGSGNVAQYAALKCIQEGAIVKSISDEKGVLIAKTAEGLVPEEIHEIMALKEKRASIADSASLCKKHHYIAGARPWTNVGEIDIALPCATQNEVSGEEAAALIKQGCRYVAEGSNMGSSAEAVEVFEKSRASGEGCWLAPGKAANAGGVAVSGLEMAQNAQFSTWTHAEVDAKLAGIMQNIFEQSTDVASKYCDSGSNNIPSLVDGANIAGFLKVATAMQAVGDWW

| Molecule | substrate | conditions | Km [µM] |
| --- | --- | --- | --- |
| B1 (enzyme) | C[C@@H]1O[C@@H](Oc2ccc([N+](=O)[O-])cc2)[C@@H](O)[C@H](O)[C@@H]1O | pH 5, 40 °C | 1320 |
| enzyme (Methanococcus maripaludis, UniProt Q6LX40) | NC(=O)c1ccc[n+]([C@@H]2O[C@H](COP(=O)(O)OP(=O)(O)OC[C@H]3O[C@@H](n4cnc5c(N)ncnc54)[C@H](O)[C@@H]3O)[C@@H](O)[C@H]2O)c1 |  | 160 |
| enzyme (Pseudomonas aeruginosa, UniProt Q9I6F6) | N[C@H](COP(=O)(O)O)Cc1c[nH]cn1 | pH 7.8, 25 °C | 22 |
| B2 (LYS1 C205S/H96Q/K77M) | NCCCC[C@H](N)C(=O)O | pH 7, 25 °C, with: NADH 0.5 mM | 96000 |
| B3 (enzyme) | N[C@@H](C[SeH])C(=O)O | pH 7.5, 25 °C, apparent | 3550 |
| B4 (enzyme) | NC(=O)c1ccc[n+]([C@@H]2O[C@H](COP(=O)(O)OP(=O)(O)OC[C@H]3O[C@@H](n4cnc5c(N)ncnc54)[C@H](O)[C@@H]3O)[C@@H](O)[C@H]2O)c1 | pH 8, apparent, cofactor varied | 50 |
| B5 (enzyme Y414S/Y415A) | Nc1ncnc2c1ncn2[C@@H]1O[C@H](COP(=O)(O)OP(=O)(O)OP(=O)(O)O)[C@@H](O)[C@H]1O | pH 8.5, 25 °C, apparent, anoxic, with: L-Thr 10 mM | 379 |
| B6 (enzyme) | C[S+](CC[C@H](N)C(=O)O)C[C@H]1O[C@@H](n2cnc3c(N)ncnc32)[C@H](O)[C@@H]1O | pH 7.9, 37 °C, apparent, with: 1-200 µM SAM | 1 |
| B7 (ackA) | Nc1ncnc2c1ncn2[C@@H]1O[C@H](COP(=O)(O)OP(=O)(O)OP(=O)(O)O)[C@@H](O)[C@H]1O | pH 7.6, 25 °C, with: acetate | 350 |
| B8 (GLA) | O=c1ccc2nc3ccc(O[C@H]4O[C@H](CO)[C@H](O)[C@H](O)[C@H]4O)cc3oc-2c1 |  | 20.9 |
| B9 (enzyme) | N[C@@H](CSSC[C@H](N)C(=O)N[C@H]1[C@@H](O[C@@H](CC(=O)O)C(=O)O)O[C@H](CO)[C@@H](O)[C@@H]1O)C(=O)N[C@H]1[C@@H](O[C@@H](CC(=O)O)C(=O)O)O[C@H](CO)[C@@H](O)[C@@H]1O | pH 8 | 34 |
| B10 (bjaI) | CC(C)CC(=O)SCCNC(=O)CCNC(=O)[C@H](O)C(C)(C)COP(=O)(O)OP(=O)(O)OC[C@H]1O[C@@H](n2cnc3c(N)ncnc32)[C@H](O)[C@@H]1OP(=O)(O)O | pH 7.3, with: 30 µM DCPIP, 331 µM SAM | 2.1 |
| enzyme (Bacillus subtilis, UniProt O31986) | O=c1ccn([C@@H]2O[C@H](CO[P@@](=O)(O)O[P@@](=O)(O)O[C@H]3O[C@H](CO)[C@@H](O)[C@H](O)[C@H]3O)[C@@H](O)[C@H]2O)c(=O)[nH]1 | pH 7.5, with: SunA | 4.1 |
| B11 (enzyme S252E) | NC(=O)C1=CN([C@@H]2O[C@H](COP(=O)(O)OP(=O)(O)OC[C@H]3O[C@@H](n4cnc5c(N)ncnc54)[C@H](O)[C@@H]3O)[C@@H](O)[C@H]2O)C=CC1 | pH 7, 30 °C, apparent | 21000 |
| enzyme (Arabidopsis thaliana, UniProt Q9SRM3) | CC/C=C\C[C@@H]1C(=O)CC[C@@H]1CC(=O)O | pH 7.5, 20 °C | 68.9 |
| acsA D449E (Pseudomonas chlororaphis) | O=C(O)CCC(F)(F)F | pH 7 | 460 |

Repeated from above:
| Molecule | substrate | conditions | Km [µM] |
| --- | --- | --- | --- |
| B3 (enzyme) | N[C@@H](C[SeH])C(=O)O | pH 7.5, 25 °C, apparent | 3550 |
| B8 (GLA) | O=c1ccc2nc3ccc(O[C@H]4O[C@H](CO)[C@H](O)[C@H](O)[C@H]4O)cc3oc-2c1 |  | 20.9 |
